Published values pooled from the literature.
Each numbered part is a random draw from the data of one study; scales do not carry over between parts. Values joined by “and” are separate records of one study, mostly repeats; a detail may differ.
Chain of UniProt Q96SB4 (whole entry, looked up): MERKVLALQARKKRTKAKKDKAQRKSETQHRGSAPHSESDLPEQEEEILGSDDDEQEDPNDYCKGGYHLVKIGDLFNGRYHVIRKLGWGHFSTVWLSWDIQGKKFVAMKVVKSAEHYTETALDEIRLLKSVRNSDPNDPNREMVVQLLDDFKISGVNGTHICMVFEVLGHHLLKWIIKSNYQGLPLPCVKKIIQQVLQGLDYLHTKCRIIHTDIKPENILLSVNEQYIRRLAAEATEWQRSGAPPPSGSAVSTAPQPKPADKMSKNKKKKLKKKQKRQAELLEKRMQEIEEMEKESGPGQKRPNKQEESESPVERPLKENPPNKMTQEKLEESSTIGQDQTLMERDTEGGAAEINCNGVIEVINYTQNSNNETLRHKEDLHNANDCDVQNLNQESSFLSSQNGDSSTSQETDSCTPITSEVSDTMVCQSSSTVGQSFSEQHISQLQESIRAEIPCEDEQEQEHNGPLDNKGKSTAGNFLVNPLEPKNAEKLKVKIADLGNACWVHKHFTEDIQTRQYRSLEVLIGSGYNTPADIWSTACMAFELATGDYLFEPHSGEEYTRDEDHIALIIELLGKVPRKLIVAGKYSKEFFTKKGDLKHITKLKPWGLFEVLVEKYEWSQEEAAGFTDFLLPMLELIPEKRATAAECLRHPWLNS
Chain of UniProt Q9H0K1 (whole entry, looked up): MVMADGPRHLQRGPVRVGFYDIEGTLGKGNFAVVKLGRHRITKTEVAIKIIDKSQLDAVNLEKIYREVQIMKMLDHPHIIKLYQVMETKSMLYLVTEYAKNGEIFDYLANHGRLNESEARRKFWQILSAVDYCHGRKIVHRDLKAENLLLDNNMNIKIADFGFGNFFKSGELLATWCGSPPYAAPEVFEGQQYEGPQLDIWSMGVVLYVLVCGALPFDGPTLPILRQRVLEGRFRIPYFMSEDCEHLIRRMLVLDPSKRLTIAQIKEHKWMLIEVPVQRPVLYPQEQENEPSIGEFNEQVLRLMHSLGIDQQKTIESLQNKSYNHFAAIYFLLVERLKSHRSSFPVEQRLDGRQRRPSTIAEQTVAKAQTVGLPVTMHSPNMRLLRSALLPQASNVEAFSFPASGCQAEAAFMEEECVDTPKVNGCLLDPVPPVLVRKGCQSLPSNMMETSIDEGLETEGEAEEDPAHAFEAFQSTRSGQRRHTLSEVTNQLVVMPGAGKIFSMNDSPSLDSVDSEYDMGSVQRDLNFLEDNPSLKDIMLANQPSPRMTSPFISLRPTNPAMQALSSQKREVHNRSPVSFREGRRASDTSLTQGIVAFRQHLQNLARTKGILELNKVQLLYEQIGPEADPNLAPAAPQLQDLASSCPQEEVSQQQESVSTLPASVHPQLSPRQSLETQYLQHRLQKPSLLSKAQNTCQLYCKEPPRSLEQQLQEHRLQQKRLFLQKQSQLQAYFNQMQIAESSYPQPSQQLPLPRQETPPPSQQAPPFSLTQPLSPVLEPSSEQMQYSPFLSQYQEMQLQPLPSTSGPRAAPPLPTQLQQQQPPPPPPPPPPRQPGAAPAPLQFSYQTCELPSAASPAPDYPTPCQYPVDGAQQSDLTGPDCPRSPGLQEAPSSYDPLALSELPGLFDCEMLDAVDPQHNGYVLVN
Chain of UniProt Q9H1R3 (whole entry, looked up): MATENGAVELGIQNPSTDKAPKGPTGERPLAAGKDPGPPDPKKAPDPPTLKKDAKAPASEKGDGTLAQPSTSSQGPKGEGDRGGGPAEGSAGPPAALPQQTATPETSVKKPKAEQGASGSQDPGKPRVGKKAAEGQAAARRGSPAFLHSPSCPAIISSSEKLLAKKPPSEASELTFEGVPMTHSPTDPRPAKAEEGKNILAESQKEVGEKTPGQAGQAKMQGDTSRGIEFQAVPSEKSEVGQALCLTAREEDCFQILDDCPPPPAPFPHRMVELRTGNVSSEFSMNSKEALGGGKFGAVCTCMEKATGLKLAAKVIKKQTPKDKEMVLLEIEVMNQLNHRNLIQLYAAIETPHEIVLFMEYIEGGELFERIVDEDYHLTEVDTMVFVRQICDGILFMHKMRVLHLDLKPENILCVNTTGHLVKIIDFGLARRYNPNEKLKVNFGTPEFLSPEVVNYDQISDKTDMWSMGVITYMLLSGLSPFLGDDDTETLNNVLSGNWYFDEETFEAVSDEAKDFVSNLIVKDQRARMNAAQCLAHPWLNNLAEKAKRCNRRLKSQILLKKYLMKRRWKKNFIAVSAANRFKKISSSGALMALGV
Chain of UniProt P31751 (whole entry, looked up): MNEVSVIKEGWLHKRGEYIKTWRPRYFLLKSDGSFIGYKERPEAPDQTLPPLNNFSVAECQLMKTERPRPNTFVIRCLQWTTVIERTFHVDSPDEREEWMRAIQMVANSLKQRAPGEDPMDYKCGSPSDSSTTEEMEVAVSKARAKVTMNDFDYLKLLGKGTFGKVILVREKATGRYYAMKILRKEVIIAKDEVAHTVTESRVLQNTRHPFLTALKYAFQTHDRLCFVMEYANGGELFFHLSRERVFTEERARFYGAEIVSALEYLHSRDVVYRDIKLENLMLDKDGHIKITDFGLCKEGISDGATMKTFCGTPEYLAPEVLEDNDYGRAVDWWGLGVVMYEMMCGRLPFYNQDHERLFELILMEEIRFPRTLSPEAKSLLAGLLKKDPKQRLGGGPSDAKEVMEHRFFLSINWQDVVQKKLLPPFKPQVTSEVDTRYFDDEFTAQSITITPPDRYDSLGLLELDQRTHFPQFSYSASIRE
Chain of UniProt Q15831 (whole entry, looked up): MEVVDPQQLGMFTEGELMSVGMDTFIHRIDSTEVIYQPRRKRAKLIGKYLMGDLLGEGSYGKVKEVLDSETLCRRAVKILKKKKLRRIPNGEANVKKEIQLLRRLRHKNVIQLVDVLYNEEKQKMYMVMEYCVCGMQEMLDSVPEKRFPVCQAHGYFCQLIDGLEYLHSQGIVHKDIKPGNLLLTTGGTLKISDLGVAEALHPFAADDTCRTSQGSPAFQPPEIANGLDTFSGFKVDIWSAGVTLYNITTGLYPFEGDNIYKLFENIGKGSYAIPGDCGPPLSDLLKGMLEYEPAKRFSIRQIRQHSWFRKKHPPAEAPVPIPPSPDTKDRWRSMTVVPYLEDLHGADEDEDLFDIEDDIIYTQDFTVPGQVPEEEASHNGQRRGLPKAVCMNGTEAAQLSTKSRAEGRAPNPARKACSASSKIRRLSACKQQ
Chain of UniProt P53671 (whole entry, looked up): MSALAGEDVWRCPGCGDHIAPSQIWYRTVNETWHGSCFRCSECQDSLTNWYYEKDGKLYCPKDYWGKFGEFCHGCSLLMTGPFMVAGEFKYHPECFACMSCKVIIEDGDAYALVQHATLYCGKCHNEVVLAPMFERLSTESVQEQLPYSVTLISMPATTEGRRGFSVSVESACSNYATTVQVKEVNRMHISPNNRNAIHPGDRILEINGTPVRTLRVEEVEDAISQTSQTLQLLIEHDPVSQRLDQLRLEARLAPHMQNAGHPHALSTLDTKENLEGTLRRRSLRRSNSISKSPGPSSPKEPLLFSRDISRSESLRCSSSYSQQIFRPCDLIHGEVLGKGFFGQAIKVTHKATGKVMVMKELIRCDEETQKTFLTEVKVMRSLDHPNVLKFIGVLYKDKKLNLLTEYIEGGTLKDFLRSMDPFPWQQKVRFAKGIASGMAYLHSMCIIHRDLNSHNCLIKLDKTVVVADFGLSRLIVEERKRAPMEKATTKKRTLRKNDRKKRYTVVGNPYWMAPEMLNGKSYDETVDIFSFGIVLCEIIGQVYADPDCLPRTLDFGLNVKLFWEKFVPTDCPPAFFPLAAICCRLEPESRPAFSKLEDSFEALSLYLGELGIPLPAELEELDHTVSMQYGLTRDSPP

Series 1 — read-out: enzyme activity; mode: inhibitor; concentration: 0.5 µM; relative to: control
Target: Serine/threonine-protein kinase N2 (PKN2, Homo sapiens, UniProt Q16513)
Chain of UniProt Q16513 (whole entry, looked up): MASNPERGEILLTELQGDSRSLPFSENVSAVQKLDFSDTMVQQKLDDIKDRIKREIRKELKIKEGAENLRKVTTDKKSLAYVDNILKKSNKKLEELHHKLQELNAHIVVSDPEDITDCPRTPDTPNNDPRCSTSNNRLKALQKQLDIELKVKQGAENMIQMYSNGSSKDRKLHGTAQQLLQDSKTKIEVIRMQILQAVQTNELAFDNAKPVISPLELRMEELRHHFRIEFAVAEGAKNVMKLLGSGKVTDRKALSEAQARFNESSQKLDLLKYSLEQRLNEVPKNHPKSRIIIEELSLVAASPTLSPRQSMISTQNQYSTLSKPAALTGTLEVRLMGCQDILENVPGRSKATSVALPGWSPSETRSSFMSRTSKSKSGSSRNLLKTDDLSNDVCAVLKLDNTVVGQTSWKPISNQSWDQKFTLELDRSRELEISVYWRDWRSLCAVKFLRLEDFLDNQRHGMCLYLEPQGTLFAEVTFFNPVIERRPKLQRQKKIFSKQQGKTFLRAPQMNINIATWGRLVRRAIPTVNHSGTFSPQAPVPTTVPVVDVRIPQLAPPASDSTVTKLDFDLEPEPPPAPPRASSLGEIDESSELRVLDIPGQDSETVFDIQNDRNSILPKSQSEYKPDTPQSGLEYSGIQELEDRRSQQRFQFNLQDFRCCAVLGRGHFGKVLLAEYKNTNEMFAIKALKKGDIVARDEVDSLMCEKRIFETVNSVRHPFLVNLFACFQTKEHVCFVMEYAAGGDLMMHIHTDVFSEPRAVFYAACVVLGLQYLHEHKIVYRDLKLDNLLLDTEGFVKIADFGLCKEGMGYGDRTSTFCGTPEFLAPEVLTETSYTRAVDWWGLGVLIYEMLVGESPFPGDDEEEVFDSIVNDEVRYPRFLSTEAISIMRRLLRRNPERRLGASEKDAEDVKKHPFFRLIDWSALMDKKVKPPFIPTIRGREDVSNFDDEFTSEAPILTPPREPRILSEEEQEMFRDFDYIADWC
| SMILES | remaining activity |
| --- | --- |
| O=C1NC(=O)c2c1c1c3ccccc3[nH]c1c1[nH]c3cc(Br)ccc3c21 | 88.7% |
| Nc1nc(Nc2ccc(S(N)(=O)=O)cc2)nn1C(=S)Nc1c(F)cccc1F | 19.1% |
| CC(C)(C)c1nc2c3cc[nH]c(=O)c3c3cc(F)ccc3c2[nH]1 | 67.1% |
| N#CC(c1ccnc(NCCc2cccnc2)n1)c1nc2ccccc2s1 (stereo not drawn) | 99.3% |
| CN(C)S(=O)(=O)c1ccc2c(c1)/C(=C/c1cc3c([nH]1)CCCC3)C(=O)N2 | 84.3% |
| COc1ccc2c(c1)c(C1=C(c3c[nH]c4ccccc34)C(=O)NC1=O)cn2CCCN(C)C | 95% |
| FC(F)(F)c1ccc(/C=C/c2nc(COc3ccc(CCCCn4ccnn4)cc3)co2)cc1 | 107% |
| c1cc(-c2cnn3cc(-c4ccc(OCCN5CCCCC5)cc4)cnc23)ccn1 | 69.2% |
| NC(=O)c1cccc(-c2cc(Nc3ccc(OC(F)(F)F)cc3)ncn2)c1 | 89.8% |
| O=C(c1cc2cc(O)ccc2[nH]1)c1cc2cc(O)ccc2[nH]1 | 97.1% |
| O=C1Nc2ccc(Br)cc2/C1=C/c1cc2c([nH]1)CCCC2 | 91.3% |
| NC(=O)c1ccc(-c2nc(-c3ccc4c(c3)OCCO4)c(-c3ccccn3)[nH]2)cc1 | 102% |
| Oc1cccc(-c2nc(N3CCOCC3)c3oc4ncccc4c3n2)c1 | 87.6% |
| COc1cc2c(N3CCN(C(=O)Nc4ccc(OC(C)C)cc4)CC3)ncnc2cc1OCCCN1CCCCC1 | 110% |
| COc1ccc(COc2ccc(Cc3cnc(N)nc3N)cc2OC)cc1 | 90.9% |
| CC(C)n1cnc2c(Nc3cccc(Cl)c3)nc(NCCO)nc21 | 90.8% |
| O=Nc1c(-c2c(O)[nH]c3cc(Br)ccc23)[nH]c2ccccc12 | 85.6% |
| CCCCc1c(-c2ccc(OC)cc2)[nH]c2nccnc12 | 88.6% |
| O=C(O)/C=C/c1cc(Br)c(Br)c(Br)c1Br | 95.6% |
| C[C@@H](N)[C@H]1CC[C@H](C(=O)Nc2ccncc2)CC1 | 59.7% |
| CCCCc1c(-c2ccc(O)cc2)[nH]c2nccnc12 | 82.4% |
| O=c1c(-c2ccc(F)cc2)c(-c2ccncc2)[nH]n1-c1ccc(Cl)cc1 | 96.4% |
| O=C1NC(=O)c2c1c1c3ccccc3[nH]c1n1cncc21 | 95.5% |
| c1ccc2c(-c3ccncc3)c[nH]c2c1 | 80.8% |
| N#C/C(=C(/N)SC1C=CC=CC1)c1cccc(C(O)c2ccncc2)c1 (stereo not drawn) | 80.8% |

Series 2 — cell line: HaCaT; concentration: 100 µM; time: 36 h
| SMILES | viability |
| --- | --- |
| O=C(NCCN1CCOCC1)c1ccc(Cl)cc1 | 100% |
| CCOC(=O)CCC(=O)O[C@H]1[C@H](O[C@@H]2[C@@H](C)[C@H](O[C@H]3C[C@@](C)(OC)[C@@H](O)[C@H](C)O3)[C@@H](C)C(=O)O[C@H](CC)[C@@](C)(O)[C@H](O)[C@@H](C)C(=O)[C@H](C)C[C@@]2(C)O)O[C@H](C)C[C@@H]1N(C)C | 74% |
| CCOc1ccc(Cc2nccc3cc(OCC)c(OCC)cc23)cc1OCC | 23% |
| CC(C)[C@H]1CC[C@H](C(=O)N[C@H](Cc2ccccc2)C(=O)O)CC1 | 111% |
| CC(C)C[C@H](NC(=O)CNC(=O)c1cc(Cl)ccc1Cl)B(O)O | 6.38% |
| O=C(O)CCC(=O)c1ccc(-c2ccccc2)cc1 | 85% |
| CCn1cc(C(=O)O)c(=O)c2cnc(N3CCNCC3)nc21 | 100% |
| CC(=O)OCC(=O)[C@@]12OC3(CCCC3)O[C@@H]1C[C@H]1[C@@H]3CCC4=CC(=O)C=C[C@]4(C)[C@@]3(F)[C@@H](O)C[C@@]12C | 76.5% |
| O=[N+]([O-])c1cncn1CCN1CCOCC1 | 97.3% |
| NCCCC(N)(C(=O)O)C(F)F (stereo not drawn) | 95.7% |
| Cc1nc(C)c(C)nc1C | 95.2% |
| Cc1cc(Nc2ncc(Cl)c(Nc3ccccc3S(=O)(=O)C(C)C)n2)c(OC(C)C)cc1C1CCNCC1 | 7.39% |
| CN1CCN2c3ncccc3Cc3ccccc3C2C1 (stereo not drawn) | 76.3% |
| C[C@H](CCC(=O)O)[C@H]1CC[C@H]2[C@@H]3[C@H](O)C[C@@H]4C[C@H](O)CC[C@]4(C)[C@H]3C[C@H](O)[C@]12C | 100% |
| Cc1cn(-c2cc(NC(=O)c3ccc(C)c(Nc4nccc(-c5cnccn5)n4)c3)cc(C(F)(F)F)c2)cn1 | 8.88% |
| NS(=O)(=O)c1cc2c(cc1C(F)(F)F)NC(Cc1ccccc1)NS2(=O)=O (stereo not drawn) | 47.4% |

Series 3 — read-out: cell-free assay; method: competition with immobilised ligand; concentration: 1 µM
SMILES: Cc1c(NC(=O)c2cc(C(N)=O)nc3cc(F)ccc23)c(C(F)(F)F)nn1Cc1ccc(C(C)(C)C)cc1
| target | remaining binding [%] |
| --- | --- |
| SIK2 (Homo sapiens, UniProt Q9H0K1) | 100 |
| MYLK2 (Homo sapiens, UniProt Q9H1R3) | 87 |
| STK11 (Homo sapiens, UniProt Q15831) | 100 |
| AKT2 (Homo sapiens, UniProt P31751) | 98 |
| EGFR (Homo sapiens, UniProt P00533, del747-750/T751S) | 77 |
| CDC42BPB (Homo sapiens, UniProt Q9Y5S2) | 96 |
| SRPK1 (Homo sapiens, UniProt Q96SB4) | 100 |
| WNK3 (Homo sapiens, UniProt Q9BYP7) | 97 |
| FGFR1 (Homo sapiens, UniProt P11362) | 93 |
| LIM domain kinase 2 (LIMK2, Homo sapiens, UniProt P53671) | 84 |

Series 4 — cell line: mouse MPNST tumor cells; method: high-content nuclear imaging; measured: cell number; concentration: 10 µM; time: 12 h; notes: mean of 2 replicates; relative to: plate mean; reading: higher = more cells
| SMILES | nuclei count |
| --- | --- |
| CCOC(=O)c1c(C)[nH]c2ccc3c(c12)CN1CCc2cc(OC)ccc2C1O3 (stereo not drawn) | -4.11 z-score |
| O=C(OC(C(F)(F)F)C(F)(F)F)N1CCC(C(O)(c2ccc3c(c2)OCO3)c2ccc3c(c2)OCO3)CC1 | 4.17 z-score |
| CCCCC(=O)NCCc1c(Cc2ccccc2)[nH]c2ccccc12 | 1.82 z-score |
| O=C1C=CC(=O)C2=C1C1c3ccccc3C2c2ccccc21 | -0.755 z-score |
| Cc1ncc(CO)c(CO)c1O | 1.3 z-score |
| C[C@@H]1CCN(C(=O)CC#N)C[C@@H]1N(C)c1ncnc2[nH]ccc12 | 2.11 z-score |
| O=[N+]([O-])c1cc2nc(O)c(O)nc2cc1[N+](=O)[O-] | 2.48 z-score |
| COc1ccc(-c2c(C)nn3c(C(F)(F)F)cc(C)nc23)c(F)c1F | 0.532 z-score |
| O=C(O)c1cnccn1 | 1.43 z-score |
| OCCN(CCO)c1nc(N2CCCCC2)c2nc(N(CCO)CCO)nc(N3CCCCC3)c2n1 | 2.41 z-score and 2.93 z-score and 3.48 z-score |
| N/C(=N\C(=O)c1nc(Cl)c(N)nc1N)NCc1ccccc1 | 2.5 z-score and 3.23 z-score |
| NS(=O)(=O)c1cc2c(cc1C(F)(F)F)NC(Cc1ccccc1)NS2(=O)=O (stereo not drawn) | -0.111 z-score |
| CC(=O)Nc1nc2c(Oc3cc(-c4ccc(C(F)(F)F)cc4)ncn3)cccc2s1 | 0.413 z-score |
| CC[C@H](C)C(=O)O[C@H]1C[C@H](O)C=C2C=C[C@H](C)[C@H](CC[C@@H](O)C[C@@H](O)CC(=O)O)[C@H]21 | 1.19 z-score and 1.74 z-score |
| Cc1c(N(C)C)c(=O)n(-c2ccccc2)n1C | 3.1 z-score |

Some of these lines once more (series 4):
| SMILES | nuclei count |
| --- | --- |
| COc1ccc(-c2c(C)nn3c(C(F)(F)F)cc(C)nc23)c(F)c1F | 0.532 z-score |
| O=C(O)c1cnccn1 | 1.43 z-score |
| OCCN(CCO)c1nc(N2CCCCC2)c2nc(N(CCO)CCO)nc(N3CCCCC3)c2n1 | 2.41 z-score and 2.93 z-score and 3.48 z-score |
| N/C(=N\C(=O)c1nc(Cl)c(N)nc1N)NCc1ccccc1 | 2.5 z-score and 3.23 z-score |
| NS(=O)(=O)c1cc2c(cc1C(F)(F)F)NC(Cc1ccccc1)NS2(=O)=O (stereo not drawn) | -0.111 z-score |
| CC(=O)Nc1nc2c(Oc3cc(-c4ccc(C(F)(F)F)cc4)ncn3)cccc2s1 | 0.413 z-score |
| CC[C@H](C)C(=O)O[C@H]1C[C@H](O)C=C2C=C[C@H](C)[C@H](CC[C@@H](O)C[C@@H](O)CC(=O)O)[C@H]21 | 1.19 z-score and 1.74 z-score |
| Cc1c(N(C)C)c(=O)n(-c2ccccc2)n1C | 3.1 z-score |
